Assay results collected from several papers.
Each numbered part is a random draw from the data of one study; scales do not carry over between parts.

Set 1 — method: RNA Bind-n-Seq; form: RNA; matrix: in vitro; tested at: 200 nM; setting: whole 134-nt RNA, ends assumed; added: 150 mM LiCl; relative to: input library; direction: higher = stronger binding; endpoint: log2 enrichment; all molecules: 7-deaza-guanosine replaces G
Target: Ras GTPase-activating protein-binding protein 1, full length (G3BP1, Homo sapiens, UniProt Q13283)
Sequence of UniProt Q13283 (whole entry, looked up): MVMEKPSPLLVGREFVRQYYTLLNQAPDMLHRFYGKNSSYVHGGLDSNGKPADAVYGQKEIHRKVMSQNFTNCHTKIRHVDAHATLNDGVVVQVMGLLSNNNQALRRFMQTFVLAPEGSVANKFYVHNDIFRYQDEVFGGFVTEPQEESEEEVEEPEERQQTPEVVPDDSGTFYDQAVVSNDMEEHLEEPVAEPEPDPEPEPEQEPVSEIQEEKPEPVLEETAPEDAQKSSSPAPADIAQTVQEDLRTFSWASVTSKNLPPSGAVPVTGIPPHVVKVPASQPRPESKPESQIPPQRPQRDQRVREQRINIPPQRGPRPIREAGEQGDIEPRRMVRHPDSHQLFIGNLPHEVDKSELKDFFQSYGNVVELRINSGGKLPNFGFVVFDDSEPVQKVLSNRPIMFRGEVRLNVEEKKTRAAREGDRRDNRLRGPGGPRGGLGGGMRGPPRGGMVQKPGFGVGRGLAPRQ
Constant ends, left off below: GGGAGUUCUACAGUCCGACGAUC … UGGAAUUCUCGGGUGUCAAGG
Strand = UGUGCUACACAUCGUAUGUACCGAAUCGGAAAAAAAGGGGAAAAAAAGGGGAAAAAAAGGGGAAAGUAUUAUGUUACGCCGUUCGGAUCU; result = 0.243
Strand = UCAAGUCCUGUGCUACACAUCGUAUGUACCGAAUCGGGUUUGGGUGGGUUUGGGAAAGUAUUAUGUUACGCCGUUCGGAUCUGCACUUCC; result = -0.344
Strand = UCCUGUGCUACACAUCGUAUGUACCGAAUCGGGGAAAAAAAGGGGAAAGGGGAAAGGGGAAAGUAUUAUGUUACGCCGUUCGGAUCUGCA; result = 0.269
Strand = UAACUUUAGAGGAGGAUCUGAUGGAUAUGGCAGUGGACGUGGAUUUGGGGAUGGCUAUAAUGGGUAUGGAGGAGUACCUGGAGGUGGCAA; result = -0.569
Strand = CCUGUGCUACACAUCGUAUGUACCGAAUCGGGGUUUUUGGGGAAAGGGGUUUUUUUGGGGAAAGUAUUAUGUUACGCCGUUCGGAUCUGC; result = 0.536
Strand = ACCAUGCAGGUGGGCAUCUUUGGGAAGUGGGGCAAGGGAGGGAUAGGGAGGGGGGUAACACUUUGGGAACAGGUGGUCCCAGGUCGUUUC; result = 0.422
Strand = ACCAUGCAGGUGGGCAUCUUUGGGAAGUGGGGCAAGGGGGGGAUAGGGAGGGGGGUAACACUUUGGGAACAGGUGGUCCCAGAUCGUUUC; result = 0.0875

Set 2 — method: protein binding microarray; form: double-stranded DNA, one strand shown; matrix: in vitro; tested at: not given; relative to: not given; direction: higher = stronger binding; endpoint: E-score
Target: Histone acetyltransferase KAT6A, both winged helices, GST fusion (KAT6A, Homo sapiens, UniProt Q92794, residues 1-181)
Setting: 8-mer, flanks averaged, mean of 2 arrays, mostly near background
Residues (chain): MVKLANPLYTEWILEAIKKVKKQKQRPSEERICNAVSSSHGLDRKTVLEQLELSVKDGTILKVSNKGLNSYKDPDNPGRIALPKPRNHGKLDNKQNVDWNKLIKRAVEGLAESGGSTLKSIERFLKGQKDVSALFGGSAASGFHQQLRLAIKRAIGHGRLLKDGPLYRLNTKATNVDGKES
Strand = TGCTTACA; result = -0.0102
Strand = GACAAATC; result = -0.0801
Strand = AGCTGTTG; result = -0.0893
Strand = AAGGGGCC; result = -0.166
Strand = CTATACCA; result = -0.108
Strand = CACACGGG; result = 0.157

Set 3 — method: RNA Bind-n-Seq; form: RNA; matrix: in vitro; tested at: not given; relative to: input RNA pool; direction: higher = stronger binding; endpoint: bound/input enrichment
Target: RING finger protein unkempt homolog, zinc fingers 1-6, GST-SBP tag (UNK, Homo sapiens, UniProt Q9C0B0, residues 30-357)
Sequence of UniProt Q9C0B0 (30-357, looked up): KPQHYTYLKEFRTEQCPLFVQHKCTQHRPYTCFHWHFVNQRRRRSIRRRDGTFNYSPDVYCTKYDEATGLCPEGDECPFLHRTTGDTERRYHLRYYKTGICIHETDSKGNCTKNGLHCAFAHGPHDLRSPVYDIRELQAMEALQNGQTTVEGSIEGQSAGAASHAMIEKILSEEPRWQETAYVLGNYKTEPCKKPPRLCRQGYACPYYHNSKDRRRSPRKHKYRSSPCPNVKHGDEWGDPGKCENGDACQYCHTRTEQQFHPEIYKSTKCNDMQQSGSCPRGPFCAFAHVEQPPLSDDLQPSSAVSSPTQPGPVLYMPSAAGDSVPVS
Setting: RNA with constant flanks, human-mouse chimeric sites, ends assumed
Constant ends, left off below: GGGAGUUCUACAGUCCGACGAUC … CAACAGAGGAUUGAGCAUCA
Strand = AGAGAUAAAGCAUCUAGGAACAUGCGAGGGUCACGGAUGAAUGGGUUGCCUAGCCCCACUCACAGCGCCCACUGUAGCUUCUACCGAACCAGAACCUUGCAGGCACUGAGUAAUGAGAAG; result = 0.119 ratio
Strand = AAAGAACUUGCUGAUGAUGAAGAUGAGGAAGACAAUGAUGAUGUUGAACCCAUUUCUGAAUUUCGAUUUGUGCCCAGUGAUAAAUCAGCAUUGGAGGCGAUGUUCACAGCAAUGUGUGAG; result = 0.304 ratio
Strand = CACAGAGGAGAUCUGCUGUUCCUCACAAAUUUCCGGGAGGACCCCAUCAGAGCUGGUGAAAUAGUUGUUUUUAAGGUUGAAGGAAGAGACAUUCCGAUAGUUCACAGAGUAAUCAAAGUU; result = 3.38 ratio
Strand = CAACCUCAGAGCCCAGACUUCCUGGAUAUUACCAACCCUAAAGCGGUAUUAGAAAACGCAUUGAGAAACUUCGCCUGUCUGACGACUGGAGAUGUGAUUGCUAUCAACUACAAUGAGAAG; result = 0.292 ratio
Strand = ACAGUUAUAUUGUUGAGGUUUGUAUUUAUAUAUUCUUGUAGUGUCUGCUUGCCUGUGACUUCUGGUAAAAUAAAAUAAGCCUUUGAAUUAGCAUGCUCAUGGUAUUUAACAUUUUCUAAA; result = 1.05 ratio
Strand = GCCACCAGAUCCCAGAAACAUGACCCUUGCUGCCUACAAAGAGAAGAUGAAGGAACUCCCACUAGUGUCCUUGUUCUGCUCCUGCUUCCUGGCCGAUCCCCUGAAUAAGUCGUCCUACAA; result = 1.22 ratio
Strand = UCAGGAACCCAGACAAACAUGAAUGUAAAUGAAGUCAUUAGCAAUAGAGCAAUUGAAAUGUUAGGAGGUGAACUUGGCAGCAAGAAGCCUGUGCACCCCAACGAUCAUGUUAACAAAAGC; result = 0.746 ratio
Strand = CGCUGGCGUUGAACUGUGUAAAUGUUUGGCCUCCAUCUCUCAGGCACGUGUGCCUUCUCUUAGUCCCUGUUUUCGGGAUGUUAUGAAUCUCAGUACUGUGGUUUGAAAGCACCAGCUUUG; result = 0.231 ratio

Single results of other studies
Molecule = PhoQ, residues 284 288 289 292 302 303 ASTSDA; target = PhoP, residues 12 14 15 18 19 HLGGL (Escherichia coli, UniProt P23836); test = Sort-seq, item: YFP reporter; test system = E. coli; setting = PhoQ-PhoP variant library, added: 10 µM Mg2+; how to read = relative to: high Mg2+ state, higher = stronger signaling; endpoint = fold induction; result = 4.65

Excerpt of the above (set 2):
Strand = TGCTTACA; result = -0.0102
